Experimental data of several laboratories.
Each line is one published result; not all experiments were run side by side. Numbers after ± are the reported error.
SULT1C4: Sulfotransferase 1C4 (SULT1C4, Homo sapiens, UniProt O75897)
Chain of UniProt O75897 (whole entry, looked up): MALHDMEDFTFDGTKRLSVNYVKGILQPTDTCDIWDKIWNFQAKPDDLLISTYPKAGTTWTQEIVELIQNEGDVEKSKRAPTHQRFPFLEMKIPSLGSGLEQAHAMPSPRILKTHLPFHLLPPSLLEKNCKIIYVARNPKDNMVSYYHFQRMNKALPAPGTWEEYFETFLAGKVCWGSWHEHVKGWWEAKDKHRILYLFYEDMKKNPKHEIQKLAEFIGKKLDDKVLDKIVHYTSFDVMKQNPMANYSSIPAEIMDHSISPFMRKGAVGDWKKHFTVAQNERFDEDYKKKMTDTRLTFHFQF
UGT1A9: UDP-glucuronosyltransferase 1A9 (UGT1A9, Homo sapiens, UniProt O60656)
Chain of UniProt O60656 (whole entry, looked up): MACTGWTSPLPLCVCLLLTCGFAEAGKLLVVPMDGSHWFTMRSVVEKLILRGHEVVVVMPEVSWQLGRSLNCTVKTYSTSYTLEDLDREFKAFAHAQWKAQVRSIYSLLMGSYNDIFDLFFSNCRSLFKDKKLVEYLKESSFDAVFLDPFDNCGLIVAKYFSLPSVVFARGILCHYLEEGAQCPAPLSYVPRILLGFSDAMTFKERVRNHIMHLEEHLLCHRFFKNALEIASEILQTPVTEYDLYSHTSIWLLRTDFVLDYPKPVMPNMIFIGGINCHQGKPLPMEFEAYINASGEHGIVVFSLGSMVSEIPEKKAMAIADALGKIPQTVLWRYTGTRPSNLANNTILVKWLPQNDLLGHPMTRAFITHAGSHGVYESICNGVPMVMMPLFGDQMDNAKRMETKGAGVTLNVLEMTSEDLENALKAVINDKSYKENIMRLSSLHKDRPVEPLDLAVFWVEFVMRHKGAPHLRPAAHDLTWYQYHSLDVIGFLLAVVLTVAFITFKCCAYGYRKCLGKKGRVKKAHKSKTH
Sortilin: Sortilin (Homo sapiens, UniProt Q99523)
Chain of UniProt Q99523 (whole entry, looked up): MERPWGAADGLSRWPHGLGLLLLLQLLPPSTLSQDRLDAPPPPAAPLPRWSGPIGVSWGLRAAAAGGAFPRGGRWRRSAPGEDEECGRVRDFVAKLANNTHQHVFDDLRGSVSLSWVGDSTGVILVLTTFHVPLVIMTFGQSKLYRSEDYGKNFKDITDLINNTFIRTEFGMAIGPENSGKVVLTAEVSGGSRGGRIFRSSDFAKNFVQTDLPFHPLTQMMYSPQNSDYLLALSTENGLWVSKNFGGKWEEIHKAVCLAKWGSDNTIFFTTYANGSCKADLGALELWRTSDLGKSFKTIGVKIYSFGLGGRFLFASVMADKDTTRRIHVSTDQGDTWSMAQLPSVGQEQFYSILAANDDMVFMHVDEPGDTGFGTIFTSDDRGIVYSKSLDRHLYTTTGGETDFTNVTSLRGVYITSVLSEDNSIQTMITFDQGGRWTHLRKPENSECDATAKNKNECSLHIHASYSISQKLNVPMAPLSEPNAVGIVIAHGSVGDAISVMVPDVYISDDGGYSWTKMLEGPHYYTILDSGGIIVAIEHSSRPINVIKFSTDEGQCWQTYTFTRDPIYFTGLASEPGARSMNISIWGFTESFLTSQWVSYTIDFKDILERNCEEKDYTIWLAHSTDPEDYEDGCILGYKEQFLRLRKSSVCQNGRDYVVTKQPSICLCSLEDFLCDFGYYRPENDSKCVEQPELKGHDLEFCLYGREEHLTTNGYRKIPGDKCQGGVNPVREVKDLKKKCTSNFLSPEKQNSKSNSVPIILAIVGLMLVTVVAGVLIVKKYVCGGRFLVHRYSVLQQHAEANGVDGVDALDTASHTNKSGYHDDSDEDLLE
Chain of UniProt P08183 (whole entry, looked up): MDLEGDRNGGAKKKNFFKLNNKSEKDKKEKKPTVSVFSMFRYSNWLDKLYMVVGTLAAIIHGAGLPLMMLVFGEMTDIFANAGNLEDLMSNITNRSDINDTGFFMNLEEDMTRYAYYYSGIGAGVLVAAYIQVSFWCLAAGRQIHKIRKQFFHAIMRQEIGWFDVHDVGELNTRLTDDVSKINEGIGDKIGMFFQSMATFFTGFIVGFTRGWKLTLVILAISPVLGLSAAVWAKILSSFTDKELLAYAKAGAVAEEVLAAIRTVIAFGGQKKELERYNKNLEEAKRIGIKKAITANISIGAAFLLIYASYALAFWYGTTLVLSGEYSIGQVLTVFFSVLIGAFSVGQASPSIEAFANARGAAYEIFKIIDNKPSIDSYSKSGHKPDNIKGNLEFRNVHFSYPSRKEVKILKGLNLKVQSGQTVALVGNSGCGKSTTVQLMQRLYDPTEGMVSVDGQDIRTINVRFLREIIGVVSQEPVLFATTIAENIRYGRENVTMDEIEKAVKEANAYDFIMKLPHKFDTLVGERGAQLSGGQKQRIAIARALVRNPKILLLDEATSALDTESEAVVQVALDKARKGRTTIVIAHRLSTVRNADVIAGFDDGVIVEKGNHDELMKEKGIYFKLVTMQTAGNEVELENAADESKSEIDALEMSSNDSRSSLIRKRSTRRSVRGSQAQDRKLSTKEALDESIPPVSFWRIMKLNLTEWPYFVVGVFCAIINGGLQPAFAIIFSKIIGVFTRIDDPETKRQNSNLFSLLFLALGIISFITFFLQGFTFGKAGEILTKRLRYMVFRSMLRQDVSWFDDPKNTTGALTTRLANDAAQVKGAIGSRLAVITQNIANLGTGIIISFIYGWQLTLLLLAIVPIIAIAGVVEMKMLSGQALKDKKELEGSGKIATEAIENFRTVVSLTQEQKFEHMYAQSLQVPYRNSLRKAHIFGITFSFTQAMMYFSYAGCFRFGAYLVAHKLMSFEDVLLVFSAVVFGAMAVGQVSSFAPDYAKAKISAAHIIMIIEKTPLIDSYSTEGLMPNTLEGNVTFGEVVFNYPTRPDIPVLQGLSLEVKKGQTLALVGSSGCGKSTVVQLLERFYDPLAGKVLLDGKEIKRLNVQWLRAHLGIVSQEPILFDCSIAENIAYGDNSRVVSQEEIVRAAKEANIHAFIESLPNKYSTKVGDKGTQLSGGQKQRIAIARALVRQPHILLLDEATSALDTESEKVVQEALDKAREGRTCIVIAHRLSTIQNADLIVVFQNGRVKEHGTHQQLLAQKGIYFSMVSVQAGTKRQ
Chain of UniProt P50225 (whole entry, looked up): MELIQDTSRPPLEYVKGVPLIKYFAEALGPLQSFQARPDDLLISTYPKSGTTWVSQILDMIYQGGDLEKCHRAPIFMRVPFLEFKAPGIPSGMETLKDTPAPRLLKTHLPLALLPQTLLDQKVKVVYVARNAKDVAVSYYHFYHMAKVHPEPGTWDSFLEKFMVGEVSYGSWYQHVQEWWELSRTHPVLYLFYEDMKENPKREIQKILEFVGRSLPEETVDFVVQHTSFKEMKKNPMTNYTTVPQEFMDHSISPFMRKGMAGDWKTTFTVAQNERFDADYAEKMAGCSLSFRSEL
Chain of UniProt P08684 (whole entry, looked up): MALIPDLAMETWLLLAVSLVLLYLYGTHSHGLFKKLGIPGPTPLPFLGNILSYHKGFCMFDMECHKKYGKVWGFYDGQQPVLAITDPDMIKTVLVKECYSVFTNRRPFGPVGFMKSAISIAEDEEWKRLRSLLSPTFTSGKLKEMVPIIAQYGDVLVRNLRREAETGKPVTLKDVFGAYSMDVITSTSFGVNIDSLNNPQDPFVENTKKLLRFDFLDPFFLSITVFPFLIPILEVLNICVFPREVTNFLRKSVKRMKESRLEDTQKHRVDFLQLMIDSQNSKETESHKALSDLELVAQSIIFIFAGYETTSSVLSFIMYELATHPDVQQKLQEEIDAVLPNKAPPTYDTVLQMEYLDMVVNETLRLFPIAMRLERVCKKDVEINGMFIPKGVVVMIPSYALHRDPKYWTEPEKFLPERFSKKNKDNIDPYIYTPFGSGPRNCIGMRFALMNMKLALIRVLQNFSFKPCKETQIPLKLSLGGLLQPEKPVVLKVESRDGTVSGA
Chain of UniProt P22309 (whole entry, looked up): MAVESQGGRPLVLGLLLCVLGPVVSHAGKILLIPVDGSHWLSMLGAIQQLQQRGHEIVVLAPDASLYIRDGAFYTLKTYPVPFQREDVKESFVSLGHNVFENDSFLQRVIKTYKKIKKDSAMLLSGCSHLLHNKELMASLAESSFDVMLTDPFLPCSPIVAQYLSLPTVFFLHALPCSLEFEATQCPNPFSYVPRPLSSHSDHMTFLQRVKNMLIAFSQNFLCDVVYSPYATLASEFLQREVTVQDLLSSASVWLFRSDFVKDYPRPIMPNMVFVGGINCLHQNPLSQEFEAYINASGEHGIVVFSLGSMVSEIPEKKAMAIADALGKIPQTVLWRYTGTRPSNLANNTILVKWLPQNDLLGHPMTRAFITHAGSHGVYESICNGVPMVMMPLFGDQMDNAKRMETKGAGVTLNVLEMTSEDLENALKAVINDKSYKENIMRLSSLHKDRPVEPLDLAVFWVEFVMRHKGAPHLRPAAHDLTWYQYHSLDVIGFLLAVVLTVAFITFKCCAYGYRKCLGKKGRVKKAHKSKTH
Chain of UniProt P19099 (whole entry, looked up): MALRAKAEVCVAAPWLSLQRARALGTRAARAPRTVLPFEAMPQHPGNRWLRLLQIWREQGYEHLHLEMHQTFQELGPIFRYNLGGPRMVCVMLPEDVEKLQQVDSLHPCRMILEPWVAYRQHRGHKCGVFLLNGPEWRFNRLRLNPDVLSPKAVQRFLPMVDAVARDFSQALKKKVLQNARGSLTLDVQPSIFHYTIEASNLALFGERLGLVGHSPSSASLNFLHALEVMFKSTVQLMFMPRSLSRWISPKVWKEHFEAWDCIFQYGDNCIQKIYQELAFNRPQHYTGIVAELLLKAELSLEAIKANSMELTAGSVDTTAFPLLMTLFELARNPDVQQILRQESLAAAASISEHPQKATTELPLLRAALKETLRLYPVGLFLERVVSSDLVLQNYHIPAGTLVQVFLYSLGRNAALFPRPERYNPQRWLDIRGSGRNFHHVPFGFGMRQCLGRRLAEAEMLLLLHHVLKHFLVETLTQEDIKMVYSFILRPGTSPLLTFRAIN

SMILES	target	assay	system	conditions	scale	endpoint	result
COc1cc2c(CCNC(C)=O)c[nH]c2cc1O	SULT1C4	substrate, sulfation, purified enzyme	–	10 µM, 10 min, pH 7.0, 37 °C	–	specific activity	3.94 ± 0.07 nmol/min/mg
CC[C@H]1[C@@H](O)[C@@H]2[C@H](CC[C@]3(C)[C@@H]([C@H](C)CCNC(=O)NS(=O)(=O)c4ccc(C(C)(C)C)cc4)CC[C@@H]23)[C@@]2(C)CC[C@@H](O)C[C@@H]12	ABCB1 (Homo sapiens, UniProt P08183)	–	human, plasma	dose not given, geometric mean, alone	–	Vd/F	216 L
O=C(O)COc1cccc(-c2nc(Nc3ccc4[nH]ncc4c3)c3ccccc3n2)c1	UGT1A9	enzyme activity, inhibitor	–	added: niflumic acid	–	IC50	11.2 µM
C=C1CN(S(=O)(=O)c2ccc(C)cc2)CCc2cc(-c3ccccc3)cc(n2)CCN(S(=O)(=O)c2ccc(C)cc2)C1.Cl	Sortilin	–	HEK-293T	–	relative to: CC50 over IC50	selectivity index	> 12.5
C=CC(=O)N1C[C@H](Nc2ncnc3[nH]ccc23)CC[C@@H]1C	CYP3A	substrate	human, plasma	oral, single dose, added: itraconazole multiple doses	–	Cmax	156 ng/mL
CC(C)=CCc1cc2c(cc1O)O[C@H](c1ccc(O)cc1)CC2=O	UGT1A9	glucuronidation, substrate	recombinant enzyme	pH 7.4	–	CLint	784 µL/min/mg
CCC(=O)NCC[C@@H]1CCc2cc(O)c3c(c21)CCO3	SULT1A1 (Homo sapiens, UniProt P50225)	substrate, sulfation, purified enzyme	–	10 µM, 10 min, pH 7.0, 37 °C	–	specific activity	2.82 ± 0.02 nmol/min/mg
Cc1cc(Nc2ncnc3ccc(NC4=NC(C)(CO)CO4)cc23)ccc1Oc1ccn2ncnc2c1 (stereo not shown)	Cytochrome P450 3A4 (CYP3A4, Homo sapiens, UniProt P08684)	–	human, plasma	oral, 300 mg tucatinib single dose, day 1, tucatinib alone	–	Cmax (geometric mean)	61.7 ng/mL
CC(C)(C)N1Cc2cccc(n2)CN(C(C)(C)C)Cc2cccc(n2)C1	Zn(II) complex	UV-vis titration	–	bound water deprotonation	–	pKa	9.1
CN(C)CCCN1c2ccccc2CCc2ccccc21	UGT1A1 (Homo sapiens, UniProt P22309)	glucuronidation, inhibitor, LC-MS	recombinant human supersomes	concentration not given, 70 min, pH 7.4, added: UGT1A1-specific substrate 20 µM	relative to: DMSO	inhibition	~40%
C[C@]12C[C@H](O)[C@H]3[C@@H](CCC4=CC(=O)CC[C@@]43C)[C@@H]1CC[C@@H]2C(=O)CO	CYP11B2 (Homo sapiens, UniProt P19099)	substrate	–	100 µM, phospholipid vesicles	–	18-hydroxylation coupling efficiency	35 ± 4.8%
C=C1CN(S(=O)(=O)c2ccc(N(C)C)cc2)CCCN(CC2CCCCC2)CCCN(S(=O)(=O)c2cccc3ccccc23)C1.Cl	Sortilin	–	HEK-293T	–	relative to: CC50 over IC50	selectivity index	≥ 26
CC(=O)NCCc1c[nH]c2ccc(O)cc12	SULT1C4	substrate, sulfation, purified enzyme	–	10 µM, 10 min, pH 7.0, 37 °C	–	specific activity	5.87 ± 0.22 nmol/min/mg
